Published values gathered from unrelated publications.
Parts stem from different laboratories: compare values within a part only.

Sample 1 — method: RNA Bind-n-Seq; form: RNA; medium: in vitro; tested at: 200 nM; setting: whole 134-nt RNA, ends assumed; together with: 150 mM KCl; reference: input library; direction: higher = stronger binding; quantity: log2 enrichment
Target: Fragile X messenger ribonucleoprotein 1, C-terminal low-complexity region (Fmr1, Mus musculus, UniProt P35922)
Constant ends, left off below: GGGAGUUCUACAGUCCGACGAUC … UGGAAUUCUCGGGUGUCAAGG
UUCCCUGGUGUGAUUCCGUCCUGCGCGGUUGUUCUCUGGAGCAGCGUUCUUUUAUCUCCGUCCGCCUUCUCUCCUACCUAAGUGCGUGCC: 0.545
GUCCUGUGCUACACAUCGUAUGUACCGAAUCGGGGUUUUUGGGGUUUUUGGUUUUUGGAAAGUAUUAUGUUACGCCGUUCGGAUCUGCAC: -0.126
UUGGAGGUGGAUUUUGUUUAUUUUUUUAGCUCAUUUCCAGGGGUGGGAAUUUUUUUUUAAUAUGUGUCAUGAAUAAAGUUGUUUUUGAAA: -0.579
UCAAGUCCUGUGCUACACAUCGUAUGUACCGAAUCGGAAAAAAAGGAAAGGUGGAAAGUAUUAUGUUACGCCGUUCGGAUCUGCACUUCC: -1.21
AGUCCUGUGCUACACAUCGUAUGUACCGAAUCGGGAAAAAAAGGGAAAAAGGGAGGGAAAGUAUUAUGUUACGCCGUUCGGAUCUGCACU: 0.233
CACAGACAACACGCACCCACACAGACACAGAGGGAAGGGGUUGGGAUGGGGACAGGGUGCACAGCAGGGCGGGGUAGGACACCAGCCCCU: 1.16
AGUCCUGUGCUACACAUCGUAUGUACCGAAUCGGGGUUUUGGUUUUGGGGUUUUGGGAAAGUAUUAUGUUACGCCGUUCGGAUCUGCACU: 0.267
CCUGCUUUUGGGGGUGACCGCCGGAGCGCGGCGUGAGCCCUCCCCCUUGGGAUCCCGCAGCUGACCAGUCGCGCUGACGGACAGACAGAC: -2.33
CCUCAAGUCCUGUGCUACACAUCGUAUGUACCGAAUCGGAGGGAGGGGAGGGGAAAGUAUUAUGUUACGCCGUUCGGAUCUGCACUUCCA: 0.583
AGUCCUGUGCUACACAUCGUAUGUACCGAAUCGGGGAAAAAGGGGUUUGGGGAGGGGAAAGUAUUAUGUUACGCCGUUCGGAUCUGCACU: 0.576
UGGCCCUGGUGGCAUGCGGGGAGGAAGAGGUGGCCUCAUGGAUCGUGGUGGUCCCGGUGGAAUGUUCAGAGGAGGCCGUGGUGGAGACAG: -0.116
UCAAGUCCUGUGCUACACAUCGUAUGUACCGAAUCGGUUUUUUUGGUGGAAAGGAAAGUAUUAUGUUACGCCGUUCGGAUCUGCACUUCC: -0.431

Sample 2 — method: competition protein-binding microarray; form: double-stranded DNA, one strand shown; medium: in vitro; tested at: 2 µM; together with: Pho4 competitor, 0.05 µM; direction: higher = stronger binding; quantity: fluorescence intensity; constant ends, left off below: … GTCTTGATTCGCTTGACGCTGCTG
Target: Centromere-binding protein 1, full length, His-tagged (CBF1, Saccharomyces cerevisiae, UniProt P17106, residues 1-351)
Chain of UniProt P17106 (whole entry, looked up): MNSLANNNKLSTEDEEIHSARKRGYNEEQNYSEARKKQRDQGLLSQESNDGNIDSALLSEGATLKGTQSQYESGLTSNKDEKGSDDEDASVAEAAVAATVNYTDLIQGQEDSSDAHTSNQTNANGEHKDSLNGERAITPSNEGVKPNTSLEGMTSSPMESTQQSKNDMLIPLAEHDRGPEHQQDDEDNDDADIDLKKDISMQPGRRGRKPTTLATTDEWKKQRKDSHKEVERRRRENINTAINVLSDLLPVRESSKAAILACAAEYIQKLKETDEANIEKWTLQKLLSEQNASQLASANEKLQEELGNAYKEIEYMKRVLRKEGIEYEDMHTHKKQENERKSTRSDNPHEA
Setting: whole 60-bp probe, lowest competitor level
GACCGTCAAAGCGTCCACATGAGATCCAATGACACC: 105 a.u.
CCCTTGTCATTTTCCCAGGTGACGCTGAATTGTATG: 143 a.u.
TTGACGATTATGATGAACGTGACTCGCAAGAAATAT: 754 a.u.
CGTCCTAGTGATTTTCACGTGTCATCCATGAGGAAG: 972 a.u.
CTTTCCCGATCTTGTCCCGTGGGTGTAGCACATTTG: 104 a.u.
GTCTTGTCTCATTGTTATGTGGGTGTCCCCACTTCA: 87.6 a.u.
CTTTGCACAATGCATTACGTGGGACCACATCCCTTT: 59.8 a.u.
GCGCAATACGTTAAGCTCGTGCTTTAGGTTTCGCCG: 85.5 a.u.
TTCGAGACGAAGCATCACCTGATGGTAAACTATTGT: 531 a.u.

Sample 3 — method: Sort-seq; measured: YFP reporter; medium: E. coli; setting: PhoQ-PhoP variant library; together with: 10 µM Mg2+; reference: high Mg2+ state; direction: higher = stronger signaling; quantity: fold induction
Molecule: PhoQ, residues 284 288 289 292 302 303 ALSMDL
PhoP, residues 12 14 15 18 19 QYFSL (Escherichia coli, UniProt P23836): 7.68
PhoP, residues 12 14 15 18 19 NYFRM (Escherichia coli, UniProt P23836): 16.3
PhoP, residues 12 14 15 18 19 TQALL (Escherichia coli, UniProt P23836): 9.55

Sample 4 — method: RNA Bind-n-Seq; form: RNA; medium: in vitro; tested at: 100 nM; reference: input RNA pool; direction: higher = stronger binding; quantity: bound/input enrichment
Target: RING finger protein unkempt homolog, zinc fingers 1-6, SBP tag (UNK, Homo sapiens, UniProt Q9C0B0, residues 30-357)
Chain of UniProt Q9C0B0 (30-357, looked up): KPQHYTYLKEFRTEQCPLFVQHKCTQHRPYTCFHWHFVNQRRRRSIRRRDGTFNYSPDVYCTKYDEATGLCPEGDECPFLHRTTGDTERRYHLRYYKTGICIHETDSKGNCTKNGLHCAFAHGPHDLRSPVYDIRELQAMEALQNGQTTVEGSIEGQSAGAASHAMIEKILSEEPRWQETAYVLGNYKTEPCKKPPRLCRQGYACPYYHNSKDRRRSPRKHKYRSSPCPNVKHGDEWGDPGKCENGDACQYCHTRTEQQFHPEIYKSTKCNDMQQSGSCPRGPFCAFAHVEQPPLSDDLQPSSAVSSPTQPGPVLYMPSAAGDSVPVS
Setting: RNA with constant flanks, vertebrate orthologous sites, ends assumed
Constant ends, left off below: GGGAGUUCUACAGUCCGACGAUC … CAACAGAGGAUUGAGCAUCA
GGUCAUGUAUAGCAAUUAGAGUGGGUUGCCCUUCUACUUCUCCCAAGAAGAAAUCCCAUAUAGAUUCCUUUCAUGUCAGAUUAUACUGUUCUGAUUUUAUUUUCUAUUAUUUUUACAUAU: 0.803 ratio
UGGGUUUCUCCUAUUAUUAUCAAGUAGCUGGAAUUGUGAAGGUUGGAGUAGUUAGAUCUUUAGCUUUUAUUCUUUUUUUUUUUUGUAUUACUAUCCAUGUGUAUAAAUUAUUGAUCAUGU: 6.24 ratio
GUUGUGAUCCCUUUAAUAUGCACAGAAAACUGUCAAAGAAAAACUUGCGUGCAAUUGACCUGCAUGACGCAACUUUUCUAACUGCCAAGUUUGGAAGACAGUUUGUACCUGGUUGGAAGC: 0.41 ratio
UAAUGUGUUGUUAUUUAUUAAGGCUAAUUUUGAGGCAAGGACUGUGUUAGUUUUACAAUGCUGGGUUAAUUCCUGUUCAUUGUUUUCAUUAUUGGAAAUAAAUAGAACUUUGUAUUUGAG: 0.55 ratio
AUUCAAACCUGUGGUACCAUGGCCUCAUGUUGAAGGAGUAGAAGUGGACUUAGAGUCUAUUAGAAGAAAAAACAAGGCCAAAAAUGAACAAGAGCAUCAUGCUGGAGGAGAUUCCCAGAA: 0.39 ratio
AGGAAAUGCUGGCUGCAAACCCUCAGGAUCGCCCAGAUGCUUUUGAACUAGAACUCAGAUUAGUACAAAUUGCAUUUAAAGAUAGUAGCUGGGAAACGUGACACCUAGGUUAUUUGCAAA: 0.891 ratio
UAUCUUUAGGAUGAAGCUCUUACACCAAGUGUCACGAGUCUGGAGAACAGAUGGGUUGAGUAGUUGUUCUUACAAAUUAGUAUCUGUGGAACACAAUCCUUUGUAUGUCAACAUCACAGU: 0.542 ratio
AGCAACCCAAGGAUUCAGGACUGGUUUUACAAAUAUGCCAAGUAGAUAUGGAACUAACAAUAGACAACCAAGACCAUGAUGUACUGUAAAUUAAUUUAUUUUUAUGAGGAAUAUUGACUU: 1.28 ratio
AGUAGUUUUAAGCUUGUUUGCACAGUUCUUUUUUUCCAUUGGAAAUGGAACUCAUUGCCUUAGGUCCUUUUAAAUAGUGUAUUAUUAUUGUCGGGGCUGGCUCUAUGCUUGAAAAUCAGU: 2.02 ratio
GUUAGGUCAUGACCCCUACAGGUUAGGUCAUGAUGCUUACAGGUUAGGACAGGACCCUUACAGAUUAGGCCAUGAUCCCUACAGACUAACUCCUGAUCCCUAUAGGAUGUCACCUAGACC: 0.421 ratio
CAUGUCUGGUGAUAUUUGGCCUGGCCUUUCAGCUUAUGAUAAUAGUUCCAGAUCACCCCAUAGUCCUUCACCUAUUGCUACACCACCUAGUCAGAGUUCAUCUUGUUCUGAUGCCCCCAU: 1.34 ratio

A few entries again (sample 1):
UCAAGUCCUGUGCUACACAUCGUAUGUACCGAAUCGGAAAAAAAGGAAAGGUGGAAAGUAUUAUGUUACGCCGUUCGGAUCUGCACUUCC: -1.21
AGUCCUGUGCUACACAUCGUAUGUACCGAAUCGGGAAAAAAAGGGAAAAAGGGAGGGAAAGUAUUAUGUUACGCCGUUCGGAUCUGCACU: 0.233
